Measured values from different studies.
Numbered parts are unrelated; each lists some results of a single study.

Set 1
Target: Interferon regulatory factor 7, full length, phosphomimetic (IRF7, Homo sapiens, UniProt Q92985, residues 1-503, S101K/S471D/S472D/S475D/S476D/S477D/S483D/S484D/S487D)
UniProt Q92985, sequence (whole entry, unmodified, looked up): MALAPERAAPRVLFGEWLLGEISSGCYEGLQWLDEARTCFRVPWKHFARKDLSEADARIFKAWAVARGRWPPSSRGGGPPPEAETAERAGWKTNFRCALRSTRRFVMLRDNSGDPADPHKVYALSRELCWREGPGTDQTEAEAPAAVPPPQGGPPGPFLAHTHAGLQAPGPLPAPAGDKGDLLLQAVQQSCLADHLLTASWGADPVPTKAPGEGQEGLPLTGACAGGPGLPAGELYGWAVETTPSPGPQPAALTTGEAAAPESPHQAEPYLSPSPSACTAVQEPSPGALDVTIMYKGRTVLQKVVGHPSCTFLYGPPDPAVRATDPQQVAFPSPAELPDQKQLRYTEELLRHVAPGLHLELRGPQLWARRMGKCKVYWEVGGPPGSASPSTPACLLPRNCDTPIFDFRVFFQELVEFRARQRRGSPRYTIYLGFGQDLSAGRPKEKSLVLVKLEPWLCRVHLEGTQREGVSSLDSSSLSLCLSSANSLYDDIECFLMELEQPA
Technique: protein-binding microarray
Molecule type: double-stranded DNA, one strand shown
Medium: in vitro
Tested at: 250 nM
Setting: 60-bp whole probe
Added: salmon DNA 0.4 mg/ml
Baseline: random background probes
Direction: higher = stronger binding
All sequences stand within: GCCTAGCAC … GTCTTGATTCGCTTGACGCTGCTG
Strand | log fluorescence [z-score]
TTAGATATCGGGTATCGATTCGTGCTA | 2.48
TTAGGTTTCGACTTCCGGTTAGTGCTA | 11.3
TCAAAATTAGTGTTTGCCACTGTGCTA | -0.453
TTAGGTATCGTTCTCGGTTAGTGCTAG | 2.29
GACGAACTGGGGTCTCGAGACGTGCTA | -0.304
GACGGTATCGGGACTGTGGACGTGCTA | -0.374
GACGATCTCACTATCGAGACGTGCTAG | 0.172
TTAGATTTCAATATCGATTAGTGCTAG | 0.305
GTTTCTTTTCTTTTCTTTTTGTGCTAG | 7.03
TTAGGACTGGCCACTGGGTTAGTGCTA | -0.674
GACGGTATCGGGCTGGGGACGTGCTAG | -0.199
TTATGTTTCCTACTGCTTTAGTGCTAG | 1.41
GACGGTATCAGGTATCGGGACGTGCTA | -0.0341
TTAGGTTTAGGTCTCGGTTAGTGCTAG | 1.33
GACGGAATGGACACTGGGGACGTGCTA | -0.606
GACGGAATGGGTCTCGGGACGTGCTAG | -0.158
TTAGGCTTCGACTTTCGGTTAGTGCTA | 1.37
GACGATCTCATTATCGAGACGTGCTAG | -0.0215

Set 2
Target: Histone acetyltransferase KAT6A, both winged helices, GST fusion (KAT6A, Homo sapiens, UniProt Q92794, residues 1-181)
Technique: protein binding microarray
Molecule type: double-stranded DNA, one strand shown
Medium: in vitro
Tested at: not given
Setting: 8-mer, flanks averaged, mean of 2 arrays, mostly near background
Baseline: not given
Direction: higher = stronger binding
Construct (chain): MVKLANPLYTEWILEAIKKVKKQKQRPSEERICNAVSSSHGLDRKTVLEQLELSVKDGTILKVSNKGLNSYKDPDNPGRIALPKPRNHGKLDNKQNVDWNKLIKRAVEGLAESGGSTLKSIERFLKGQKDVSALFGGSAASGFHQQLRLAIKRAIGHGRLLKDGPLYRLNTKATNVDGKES
Strand | E-score
CTCGTCCC | -0.0587
GGAGCACC | -0.072
CCCTGTTA | -0.108
AGAATAAG | -0.149
ACCGCGGA | 0.318
GGGAAATA | -0.157
AACCCTAT | -0.124
AGTACACG | 0.117
CACAATCG | 0.0656
GACCTGCA | -0.163
GGGACATA | -0.0583
CGTTCCGC | 0.281
AGCAGGAC | -0.129
GCCTATAA | -0.126
ACTTTTCA | -0.138
ATTTGAGC | -0.136
TGGCAACA | -0.283
CCCAGCAA | -0.15
AACGGTCC | 0.108
TCTATACA | -0.0728
ACGAGGAC | -0.0377
GAACCGAC | 0.217
ACAACTTG | -0.125
CTCAACGC | 0.128
CCGGAATC | 0.116

Set 3
Target: RING finger protein unkempt homolog, zinc fingers 1-6, SBP tag (UNK, Homo sapiens, UniProt Q9C0B0, residues 30-357)
UniProt Q9C0B0, sequence (30-357, looked up): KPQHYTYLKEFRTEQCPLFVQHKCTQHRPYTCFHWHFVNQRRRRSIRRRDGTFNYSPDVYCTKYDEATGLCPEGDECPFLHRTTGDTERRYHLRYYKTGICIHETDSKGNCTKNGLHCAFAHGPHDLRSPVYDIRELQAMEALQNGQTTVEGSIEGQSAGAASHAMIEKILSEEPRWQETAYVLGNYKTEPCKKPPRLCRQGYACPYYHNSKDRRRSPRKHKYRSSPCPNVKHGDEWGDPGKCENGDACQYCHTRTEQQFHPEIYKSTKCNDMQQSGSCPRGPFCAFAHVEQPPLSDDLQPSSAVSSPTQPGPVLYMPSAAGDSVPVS
Technique: RNA Bind-n-Seq
Molecule type: RNA
Medium: in vitro
Tested at: 100 nM
Setting: RNA with constant flanks, vertebrate orthologous sites, ends assumed
Baseline: input RNA pool
Direction: higher = stronger binding
Strand | bound/input enrichment
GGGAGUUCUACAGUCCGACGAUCGAGUGCUUAAGCUGCCAACAGUUAGAAGAUGCUAUUUAUUUGUGUCUGUAAGUUUGUACAUAGUAAUGCCAGCCUUGUUGCUGAAUUUUUUAUUUGGGGGGAGAUGACUUUGAAUUUUGUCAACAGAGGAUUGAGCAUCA | 2.65 ratio
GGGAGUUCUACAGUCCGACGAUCCCAUUGCACCCUGCUGUAUAAUAAAUAAUCUUAGCAUUUACCAAUUGUUGAUACAAAUGUUAGUCCCUAACCACUUUUUAUAUGUUUUAAAUUUUUGAAAUUCAAGUGUACCUGCCAUAACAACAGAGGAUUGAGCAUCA | 2.84 ratio
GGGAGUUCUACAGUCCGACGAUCAGAUUUGGACCUUGGAGCUGAACCAGGGAACUAGAAAAGUAAAACAAACUUGUAAAAUGAUAGCCAUGUGCAGCUGUACAACAGUACUAUCACUAACACCUGUGUUAAAAUAUUUAUACACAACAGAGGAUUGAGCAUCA | 0.66 ratio
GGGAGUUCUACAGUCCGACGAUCGGGAUAUAUUGAAUAGUAUUAAACAUUUUUGUCUUCCUUUACCUUUUAUCCCUUAAUAUCUAGUCUACUUUUUUAAAUUUCAGACUUCAGUACUCUUUGAAUUGAUAAUUCCAAUUUUCACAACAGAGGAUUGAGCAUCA | 0.874 ratio
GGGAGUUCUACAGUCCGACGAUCUUUAAAAUGUAUUUAAUCACACUCACUGACCUCAUUUCUGAGUCCCUCCUGUCACUGAACGCAACUCUCCUUUUCACGAUUGCAGUUGGAAGCCUAUGAGUUCAUAGGCGGCCAAGUCAGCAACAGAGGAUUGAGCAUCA | 0.411 ratio
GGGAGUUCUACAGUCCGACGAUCAACUCUUGCAGUCUUAGAUGUUAUAAAAAUAUAUAUAUAUCUCUGAAUUGUAAGAGUUGUUAGCACAGUUUUUUUGUUUGUUUUUAAACACUUGUUUUGGGUACAAGGCAUUUCUGAAAUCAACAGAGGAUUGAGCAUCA | 0.471 ratio
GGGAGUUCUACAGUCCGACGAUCGCUGUUAAUGCACUGUUAUACCAGGAAUUGUCUGAAGUUAGUGUAAUCUAGAAGAUUUUAUAGUUUUAUUUUAAUGAAGUAUGGAUUGAAGCAAAGCUGUUAGGAGUAUGUAGUCUUUUACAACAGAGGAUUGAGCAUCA | 3 ratio
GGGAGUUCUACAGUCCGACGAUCGUAGACAUGAGAAAGUAUGCAUGUACCCCAUGUAUUUGCCUGGAAAUACAGAACGGAAGAAAGAAAAGCCAUGCAAUGUGACAAAGGUAUCUGAGAAGGAAGAUCCAGGCCAGAGUCCCGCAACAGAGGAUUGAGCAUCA | 0.19 ratio
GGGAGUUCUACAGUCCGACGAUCGACCUAAGGGAGUUAGCAUCUUUAUUUUUAUAUCAAAGAUAAAGGUUAUUUUGAAAUUAUCAGGAUUUUUACACAACCCUGAAAUCUGUUGCUUUUGUAAACAAACUAUUUCCCCCCACCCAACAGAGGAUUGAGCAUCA | 1.46 ratio
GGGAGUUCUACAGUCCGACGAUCGGGCGGCCCGUGGGGGAAUUCCCUGCCUUGGCCUUACCUCCCCUUCCUGCCACUUGCCCCUAGUUUUUUUUUUUUUUUUACCACCAUGUGAUUAAGGUCGGCUCUGCCUCCCCCGACCCACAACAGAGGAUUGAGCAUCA | 9.32 ratio
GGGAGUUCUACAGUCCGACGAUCAAAUUUACUUCAUGCCCUGGACGCCCUACCGCACCGACACUUUGAUCGAGUUUGCCUCUAUCGAAGACUUCCAGAAUAGCCGUCAGACCACUACGUAUAAACUUCCCAACCGAGUAGACGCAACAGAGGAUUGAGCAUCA | 0.625 ratio

Set 4
Target: RNA binding protein fox-1 homolog 2, RRM domain, GST-SBP tag (RBFOX2, Homo sapiens, UniProt O43251-10, residues 100-194)
Technique: RNA Bind-n-Seq
Molecule type: RNA
Medium: in vitro
Tested at: 365 nM
Setting: natural RNA segment, single round, ends assumed
Baseline: no-protein control
Direction: higher = stronger binding
Target sequence (chain): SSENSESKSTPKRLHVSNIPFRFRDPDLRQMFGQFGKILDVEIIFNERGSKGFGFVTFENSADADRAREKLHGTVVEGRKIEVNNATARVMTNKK
Strand | RBNS enrichment (R)
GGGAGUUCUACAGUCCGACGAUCAAUCAUCUCUCUCAAGUUCAAAGUUCCACAAAUCCCUAUGGAAGGGGCAAAAUGCUGCCAGUCUCUUUGCUAAAACAUAACAAGAGUCACCUUUACUCCAGUUCCCAACAUGGAAUUCUCGGGUGCCAA | 0.646
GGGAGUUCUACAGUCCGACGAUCUCCAAUGGGUCACACAUGUCUUAUACAUACUUAAUAAUUGAGAGUGGCAAUUCCGCUGGAGCUGUCUGCCAAAAGAAACUGCCUACAGACAUCAUCACAGCAGCCUCCUCUGGAAUUCUCGGGUGCCAA | 0.566
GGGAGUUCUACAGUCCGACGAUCGCUCCGCAGGUUACCUCAUGGCAUAUCAAAAAUGGCUUUUUUCUUCACUGCGCUCAAGGAAAAAGUCAGAUGGGUGACAAGGUGGUUCUGUUUAGAAGCAGCAGGCAAUGUGGAAUUCUCGGGUGCCAA | 0.196
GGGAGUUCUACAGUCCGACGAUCUCUCAGGCCCUGCUCACUCCCGGGGCCACCAAACGGGCCCCUCUCUCGGGGGAACCGGACAGCAGCUUGGCAAAGGCCUCCCUAAAAGGCCGCAUUUCUGACCUGAGCCCUGGAAUUCUCGGGUGCCAA | 0.404
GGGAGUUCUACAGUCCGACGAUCCGAUAUUUAUCUUUGGUAAAUGACUUUAGAGCAGUUAAAGACAUUGCUUAAAAACUCAGAAUCAGAAAAACACUGAAUUAUUUAAGAACACAUAUAUUUUAAAGUAUAACUGGAAUUCUCGGGUGCCAA | 0.707
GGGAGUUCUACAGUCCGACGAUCCCACCCCCUUUACCUCCCUUCCCAGAACUGAUACACGGGUGUUAUUAUUCAGGAAAAAAACUGAGCAGCUCUGGCCAGCAGCAAGGUUUCUUCUCUACUGCCCCAACUAUUGGAAUUCUCGGGUGCCAA | 0.877
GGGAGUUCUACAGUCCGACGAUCACUACGUCCCUCCAAGUGAAGACAGACUGUUUUAGACAGACUUUUUAAAAUGGUGCCCUACCAUUGACACAUGCAGAAAUUGGUGCGUUUUGUUUUUUUUUUUCCUAUGCUGGAAUUCUCGGGUGCCAA | 0.996
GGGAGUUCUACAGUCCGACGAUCAAGCCCAGAACUUCUCUUUUGACAAUAAAGUACUGAGCAGUGGUAUCAUGAGGGCCACCUCCACAUUGUCCCCUGCAGAAUAAAUGCGGAUGACAGAAAGCUUAUGCUGUUGGAAUUCUCGGGUGCCAA | 0.294
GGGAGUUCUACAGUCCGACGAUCUUCGCUCUACCUCUGACCUCUGGAGAUUUGGCUGCCUCCUUCUCAAGCUCUAAGACUCAAAGAAAUGGAACCUCUGCCCCAAACACUAGAGAAGCAGGAGAACAGACAAUUGGAAUUCUCGGGUGCCAA | 0.373
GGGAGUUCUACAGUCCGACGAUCCUGAUUGGGUCAACAGUUGAUUAGUGGAAGACGGAGAGCAGAAGAAUUUUGUCAUAUCUAUUAGGCCAGAAAGUAAUCACUGAAGAAGCAGAUGGUAGGAGCUGGAGCAAUGGAAUUCUCGGGUGCCAA | 0.362
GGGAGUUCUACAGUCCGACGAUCACAAACUUCAAGAUUAUUUAAGUGAAGAUAUUUCUUCAGCUCUGGGGAAAAUGCCACAGUGUUCUCCUGAGAGAACAUCCUUGCUUUGAGUCAGGCUGUGGGCAAGUUCCUGGAAUUCUCGGGUGCCAA | 0.311
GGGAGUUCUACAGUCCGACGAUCAGCAGUUUGCUCUGUGCGUCCACGGCCUAGGUGUUUCUUGGGGGUGUUGGGAGGGCAGGAGCAUUCCUUGAGGAGGAGUGGCAACAUCAAAGUGUUUGUGUCCCUUGCCAUGGAAUUCUCGGGUGCCAA | 0.364
